Assay results pooled from the literature.
Each line is one published result; not all experiments were run side by side. “And” joins repeats or separate records; there may be more than shown. Numbers after ± are the reported error.
rep H3304A main protease H41A: Replicase polyprotein 1ab, main protease H41A (rep, Severe acute respiratory syndrome coronavirus 2, UniProt P0DTD1, H3304A)
rep main protease: Replicase polyprotein 1ab, main protease (rep, Severe acute respiratory syndrome coronavirus 2, UniProt P0DTD1)

For `NC(=S)N/N=C/c1ccc(OC(=O)CC2SC(=O)NC2=O)cc1` (stereo not drawn), the MIC was 45.4 µM (Mycobacterium tuberculosis; Alamar blue; MDR 210).
For `COc1ccc(CNC(C)(C)C23CC4CC(CC(C4)C2)C3)c(O)c1`, the Kd was > 100 µM (Matrix protein 2 (Influenza A virus, UniProt P0DOF5, S31N); binding).
`O=C(CCCCCCc1ccc(O)c(O)c1)c1c(O)cccc1O` gave a selectivity index of 1.5 (SARS-CoV-2; HEK293T ACE2, Gamma P.1; baseline: CC50 over EC50).
`COc1ccc2ncc(F)c(C[C@H](O)[C@H]3OC[C@H](NCc4cc5c(nn4)OCCS5)CO3)c2n1` gave an MIC of 2 µg/mL (Mycobacterium tuberculosis; H37Rv katG deletion).
For `O=c1cc(-c2ccc(O)cc2)oc2c([C@@H]3OC[C@H](O)[C@H](O)[C@H]3O)c(O)c([C@@H]3O[C@H](CO)[C@@H](O)[C@H](O)[C@H]3O)c(O)c12`, the inhibition was 50.9% (rep H3304A main protease H41A; 3CL protease activity, inhibitor; concentration not given, 3CLpro H41A mutant).
`COc1ccc2ncc(F)c(C[C@H](O)[C@H]3OC[C@H](NCc4ccc(C)cc4)CO3)c2n1` has an MIC of 0.5 µg/mL (Mycobacterium tuberculosis; H37Rv katG deletion).
With `CC(=O)Oc1ccc(CCCCCCCCC(=O)c2c(OC(C)=O)cccc2OC(C)=O)cc1OC(C)=O` the selectivity index was 4.5 (SARS-CoV-2; HEK293T ACE2, Delta B.1.617.2; baseline: CC50 over EC50).
`Cc1ccc(CNC23CC4CC(CC(C4)C2)C3)s1` gave an EC50 of 3.3 µM (Influenza A virus; A/WSN/33 M2-S31N).
`CCCCCCNCc1ccc(Oc2ccc(Cl)cc2Cl)c(O)c1` has an MIC of 5 µg/mL (Mycobacterium tuberculosis; V2475).
With `N=C(N)NCCC[C@H](NC(=O)[C@@H]1CCCN1C(=O)[C@H](N)Cc1ccccc1)C(=O)CCl` the inhibition was 36% (Severe acute respiratory syndrome coronavirus 2; viral entry, inhibitor; A549-hACE2-TMPRSS2; 50 µM, pseudovirus).
With `N#CC1(c2ccc3c(N)ncnn23)OC(COP(=O)(O)OP(=O)(O)OP(=O)(O)O)C(O)C1O` (stereo not drawn) the EC90 was 6.45 µM (Severe acute respiratory syndrome coronavirus 2; viral replication, inhibitor; Vero C1008; 48 h).
The MIC of `Oc1cc(Cn2ccnn2)ccc1Oc1ccc(Cl)cc1Cl` is reported as 40 µg/mL (Mycobacterium tuberculosis; V2475).
For `O=C(CCCCCCCCCCc1ccc(O)c(O)c1)c1c(O)cccc1O`, the selectivity index was 4.7 (SARS-CoV-2; HEK293T ACE2, Alpha B.1.1.7; baseline: CC50 over EC50).
`COc1ccc2nccc(CC[C@H]3OC[C@H](NC(=O)c4ccc5c(n4)NC(=O)CS5)CO3)c2c1` has an MIC of 0.125 µg/mL (Mycobacterium tuberculosis; H37Rv katG deletion).
`CC(C)(C)[C@H](NC(=O)NC1(CS(=O)(=O)C(C)(C)C)CCCCC1)C(=O)N1C[C@H]2[C@@H]([C@H]1C(=O)N[C@H](C#N)C[C@@H]1CCNC1=O)C2(C)C` has a delta Tm of 13.2 °C (rep H3304A main protease H41A; binder, thermal shift).
The inhibition of `CC(C)[C@H](CNC(=O)[C@@H](NC(=O)c1cccc(-c2ccccc2)n1)[C@@H](C)O)B(O)O` is reported as 76% (Severe acute respiratory syndrome coronavirus 2; viral replication; 10 µM).
For `CCn1ccc(-c2cc(-c3cnn(C)c3)cc([C@@H](C)NC(=O)c3cc(OCCN(C)C)ccc3C)c2)n1`, “E167G (GGA) mutation frequency” read 88.6% and 75.7% and 85% and 92.7% (SARS-CoV-2; WA1 lineage passage 11; concentration not given).
The inhibition of `CC(C)CC(C(=O)N1CC2(CC1C#N)C(=O)Nc1ccccc12)N(C)C(=O)c1cc2c(F)cc(F)c(F)c2[nH]1` (stereo not drawn) is reported as 100% (SARS-CoV-2; viral replication; VeroE6/TMPRSS2, Omicron variants; 0.3 µM).
For `Oc1ccc(CCCCCCCCC(O)c2c(O)cccc2O)cc1O` (stereo not drawn), the EC50 was 6.8 µM (SARS-CoV-2; viral replication, MTT; HEK293T ACE2, Gamma P.1).
The MIC of `COc1ccc2nccc(CC[C@H]3OC[C@H](NC(=O)c4ccc(Cl)c(Cl)c4)CO3)c2c1` is reported as 0.5 µg/mL (Mycobacterium tuberculosis; H37Rv katG deletion).
With `CC(C)C[C@@H]1NC(=O)[C@H](C(C)C)NC(=O)[C@H](C)NC(=O)[C@H](Cc2ccc(O)cc2)NC(=O)[C@H](CCC(N)=O)NC(=O)[C@H](CC(C)C)NC(=O)[C@@H](Cc2ccc(O)cc2)NC(=O)C[Se]C[C@@H](C(N)=O)NC(=O)[C@H](CCC(=O)O)NC(=O)[C@H](CCCNC(=N)N)NC(=O)[C@H](CCCNC(=N)N)NC(=O)[C@H](CCCCN)NC(=O)[C@H](Cc2c[nH]cn2)NC(=O)[C@H](CCCNC(=N)N)NC1=O` the IC50 was 56 nM (rep main protease; enzyme activity, inhibitor).
The MIC of `COc1ccc2ncc(F)c(CC[C@@]3(O)CO[C@@H]4[C@@H](NCc5ccc(Cl)c(Cl)c5)CO[C@@H]43)c2n1` is reported as 1 µg/mL (Mycobacterium tuberculosis; H37Rv katG deletion).
The EC50 of `CN1CC(=O)N=C1N.C[C@H](CCC(=O)O)[C@H]1CC[C@H]2[C@@H]3CC[C@@H]4C[C@H](O)CC[C@]4(C)[C@H]3CC[C@]12C` is reported as 12.7 ± 2.72 µg/mL (SARS-CoV-2 Delta variant; virucidal activity; A549-hACE2, B.1.617.2; 72 h post infection, virus pretreated 1 h, 37 °C).
For `CC1OC(OC2C(OC(=O)C34CCC(C)(C)CC3C3=CCC5C6(C)CCC(OC7OC(CO)C(O)C(O)C7O)C(C)(C)C6CCC5(C)C3(C)CC4O)OCC(O)C2O)C(O)C(O)C1OC1OCC(O)C(OC2OCC(O)C(OC3OCC(O)C(O)C3O)C2O)C1O` (stereo not drawn), the IC50 was 1590 nM (SARS-CoV-2; viral infection; Vero, alpha variant B.1.1.7).
The MIC of `COc1ccc2ncc(F)c(C[C@H](O)[C@H]3OC[C@H](NCc4ccc(Cl)c(Cl)c4)CO3)c2n1` is reported as 0.125 µg/mL (Mycobacterium tuberculosis; H37Rv katG deletion).
`CC(C)C[C@@H]1NC(=O)[C@H](C(C)C)NC(=O)[C@H](C)NC(=O)[C@H](Cc2ccc(O)cc2)NC(=O)[C@H](CCC(N)=O)NC(=O)[C@H](CC(C)C)NC(=O)[C@@H](Cc2ccc(O)cc2)NC(=O)CSC[C@@H](C(N)=O)NC(=O)[C@H](CCC(=O)O)NC(=O)[C@H](CCCNC(=N)N)NC(=O)[C@H](CCCNC(=N)N)NC(=O)[C@H](CCCCN)NC(=O)[C@H](Cc2c[nH]cn2)NC(=O)[C@H](CCCNC(=N)N)NC1=O` has an IC50 of 70 nM (rep main protease; enzyme activity, inhibitor).
`CCCCN(CCCC)CC(O)COc1c2ccoc2c(OC)c2oc(CC)cc(=O)c12` (stereo not drawn) gave an MIC of 8 µg/mL (Mycobacterium tuberculosis; Alamar blue; 22/22, SIRE and linezolid resistant; 21 days, 37 °C).
`COc1ccc2nccc(CC[C@H]3OC[C@H](NCc4ccc(Cl)c(Cl)c4)CO3)c2c1` has an MIC of 1 µg/mL (Mycobacterium tuberculosis; H37Rv katG deletion).
The ΔTm of `O=C(NC1CCN(c2ncnc3[nH]cnc23)CC1)c1cccc(NS(=O)(=O)c2ccc(C(F)(F)F)cc2)c1` is reported as 5.4 °C and 6.1 °C (Replicase polyprotein 1ab, nsp14 W292A (rep, Severe acute respiratory syndrome coronavirus 2, UniProt P0DTD1, W6217A); thermal shift; SARS-CoV-2).
`COc1ccc2ncc(F)c(CC[C@@]3(O)CO[C@@H]4[C@@H](NCc5ccc(C)cc5)CO[C@@H]43)c2n1` gave an MIC of 4 µg/mL (Mycobacterium tuberculosis; H37Rv katG deletion).
`N=C(N)SCc1ccc(B(O)O)cc1` has an EC50 of 66 µM (Severe acute respiratory syndrome coronavirus 2; viral entry, inhibitor; A549-hACE2-TMPRSS2; pseudovirus).
For `CC(C)C(=O)OC[C@H]1O[C@@](C#N)(n2ccc(N)nc2=O)[C@H](O)[C@@H]1O`, the EC90 was 3.5 ± 1 µM (SARS-CoV-2 Delta; viral replication; Calu-3).
`Clc1ccc(CNC23CC4CC(CC(C4)C2)C3)s1` gave an EC50 of 3.5 µM (Influenza A virus; A/WSN/33 M2-S31N).
